Published values collected from several papers.
A part holds a random share of what one study measured. Positions count from the first letter of the parent shown.

Sample 1
Target: Histone acetyltransferase KAT6A, winged helix 2, GST fusion (KAT6A, Homo sapiens, UniProt Q92794, residues 85-181)
Method: protein binding microarray
Form: double-stranded DNA, one strand shown
Sample: in vitro
Concentration: not given
Setting: 8-mer, flanks averaged, mean of 2 arrays, mostly near background
Reference: not given
Reading: higher = stronger binding
Target sequence (chain): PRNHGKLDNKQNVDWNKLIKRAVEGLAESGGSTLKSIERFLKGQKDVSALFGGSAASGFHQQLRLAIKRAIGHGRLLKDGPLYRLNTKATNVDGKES
Oligonucleotide | E-score
CAGCGGCA | 0.164
GAATTGTC | 0.0724
ATTATTAC | -0.0572
ACTTACAT | -0.105
AAAACTAG | -0.00707
ACGCGTAA | -0.279
AACGACCC | 0.0474
CTCAGACA | 0.0679
AACTCGGG | 0.0713
GACCTTAA | -0.0423
ATTTCCAA | -0.0387
ACGCGTAG | -0.0416
ACGGAAAA | -0.083
ACATCTAG | -0.098
CTTGTTCA | -0.0714
AGTGCCCG | 0.127
CCATGCGA | 0.168

Sample 2
Target: Cyclic AMP-dependent transcription factor ATF-1 (ATF1, Homo sapiens, UniProt P18846, residues 1-271, full length assumed)
Method: protein-binding microarray
Form: double-stranded DNA, one strand shown
Sample: in vitro
Concentration: not given
Setting: k-mer, scored over probes, only values ≥0.25
Reading: higher = stronger binding
Construct (chain): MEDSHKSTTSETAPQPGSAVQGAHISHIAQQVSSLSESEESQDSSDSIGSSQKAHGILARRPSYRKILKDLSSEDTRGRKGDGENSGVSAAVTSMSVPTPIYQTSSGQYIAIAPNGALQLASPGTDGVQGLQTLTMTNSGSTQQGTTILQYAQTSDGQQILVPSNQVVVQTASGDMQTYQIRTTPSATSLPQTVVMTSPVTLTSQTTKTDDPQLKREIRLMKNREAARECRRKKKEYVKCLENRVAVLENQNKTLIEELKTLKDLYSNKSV
Oligonucleotide | E-score
ACGACGC | 0.261
ATGACGA | 0.463
CGATACG | 0.253
CATCACA | 0.334
CGTGTAA | 0.26
ACGTCAG | 0.476
ATGATGC | 0.252
ATACGTG | 0.372
TGACGAA | 0.391
TCCGTCA | 0.327
TACGTAA | 0.455
ATGACAT | 0.3
ACGTGAG | 0.267
CGTCACG | 0.487
ATACGAC | 0.277
GACGTGA | 0.382
GTCGTGA | 0.265
ACGTCGC | 0.282

Sample 3
Target: Ras GTPase-activating protein-binding protein 1, full length (G3BP1, Homo sapiens, UniProt Q13283)
Sequence of UniProt Q13283 (whole entry, looked up): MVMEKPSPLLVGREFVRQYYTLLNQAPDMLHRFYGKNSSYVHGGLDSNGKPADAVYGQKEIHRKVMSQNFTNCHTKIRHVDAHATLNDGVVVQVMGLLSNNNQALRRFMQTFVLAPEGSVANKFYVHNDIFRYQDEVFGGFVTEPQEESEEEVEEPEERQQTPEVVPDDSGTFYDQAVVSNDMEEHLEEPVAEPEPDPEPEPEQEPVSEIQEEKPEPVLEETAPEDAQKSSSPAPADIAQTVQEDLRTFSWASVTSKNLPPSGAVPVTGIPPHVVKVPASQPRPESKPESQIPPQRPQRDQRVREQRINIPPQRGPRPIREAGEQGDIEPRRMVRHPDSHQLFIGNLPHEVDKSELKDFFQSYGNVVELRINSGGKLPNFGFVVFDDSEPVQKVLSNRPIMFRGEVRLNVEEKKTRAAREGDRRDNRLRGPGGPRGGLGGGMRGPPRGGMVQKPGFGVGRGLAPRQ
Method: RNA Bind-n-Seq
Form: RNA
Sample: in vitro
Concentration: 200 nM
Setting: whole 134-nt RNA, ends assumed
Together with: 150 mM LiCl
Reference: input library
Reading: higher = stronger binding
Library: 7-deaza-guanosine replaces G
Shared flanks, not repeated: GGGAGUUCUACAGUCCGACGAUC … UGGAAUUCUCGGGUGUCAAGG
Oligonucleotide | log2 enrichment
UGGGAGGAGGAUUUUGUUUAUUUUUUUAGCUCAUUUCCAGGGGUGGGAAUUUUUUUUUAAUAUGUGUCAUGAAUAAAGUUGUUUUUGAAA | -0.114
GCAGGAAGUAAAAACAAAUGGAAAUGCUUCGGAUAGUGGCAGGGGUGGGGGUUGCUAAGGAAAGGGUGGGAUGGGAGUGGGCAAAGAGUU | 0.29
CUCAAGUCCUGUGCUACACAUCGUAUGUACCGAAUCGGUUUUUUUGGUGGUGGAAAGUAUUAUGUUACGCCGUUCGGAUCUGCACUUCCA | 0.279
UCCUGUGCUACACAUCGUAUGUACCGAAUCGGGCCCCCGGGGCCCCCGGGCCCCCGGGGAAAGUAUUAUGUUACGCCGUUCGGAUCUGCA | -1.82
CCUGUGCUACACAUCGUAUGUACCGAAUCGGGGUUUUUUUGGGGUGGGGUUUUUUUGGGGAAAGUAUUAUGUUACGCCGUUCGGAUCUGC | 0.0251
CCUGUGCUACACAUCGUAUGUACCGAAUCAAACCCCCAAACCCCCCCAAAUUUUUUUAAAAAAGUAUUAUGUUACGCCGUUCGGAUCUGC | 0.574
UGCCAUGGACAAUAUUACCAGGCAGAACCAAUUCUACGAUACCCAAGUCAUCAAACAAGAAAACGAGUCAGGCUACGAGAGGAGACCACU | 0.792
UGGGAGGUGGAUUUUGUUUAUUUUUUUAGCUCAUUUCCACGGGUGGGAAUUUUUUUUUAAUAUGUGUCAUGAAUAAAGUUGUUUUUGAAA | 0.198
UGUUCCUGUUGAUGAAAAUCUUUUCACUGGAGAGGAUUUGGAUGAACUAGAAGAAGAAUUAAAUACACUUGAUUUAGAAGAAUGACACCA | -1.01
CCUGUGCUACACAUCGUAUGUACCGAAUCGGUUUUUUUGGGUUUUUUUGGGUUUUUUUGGGAAAGUAUUAUGUUACGCCGUUCGGAUCUG | -0.0305
UGGGAGGUGGAUUUUGUUUAUUUUUUUAGCUCAUUUCCAAGGGUGGGAAUUUUUUUUUAAUAUGUGUCAUGAAUAAAGUUGUUUUUGAAA | 0.178

Sample 4
Target: ABI1, truncated, D143A, DHFR fusion (Arabidopsis thaliana)
Method: DHFR PCA, deep sequencing
Sample: yeast
Setting: methotrexate growth selection, single substitutions
Together with: (+)-ABA 710 µM
Reference: wild-type fitted maximum
Reading: higher = stronger binding
Starting sequence: PYL1, truncated, DHFR fusion (Arabidopsis thaliana); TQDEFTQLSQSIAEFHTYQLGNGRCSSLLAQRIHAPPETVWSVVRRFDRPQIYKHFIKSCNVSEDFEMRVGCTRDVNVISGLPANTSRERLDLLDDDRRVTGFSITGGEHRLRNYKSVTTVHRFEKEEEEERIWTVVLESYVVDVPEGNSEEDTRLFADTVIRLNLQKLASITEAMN
Change | relative binding score
S140N | 7.39%
D92R | 73%
Q167W | 77%
E152Q | 99.7%
E127L | 108%
E147D | 106%
S63Q | 104%
E128T | 113%
V62N | 73.1%
E64Q | 107%
E129Y | 106%
Q7W | 109%
I52V | 103%
E125L | 107%

Sample 5
Target: Hepatocyte nuclear factor 3-alpha (Foxa1, Mus musculus, UniProt P35582, residues 1-468, full length assumed)
Method: EMSA with sequencing
Form: double-stranded DNA, one strand shown
Sample: in vitro
Concentration: 10 and 20 nM
Setting: whole designed probe, mean of two concentrations, ends assumed
Reference: negative control set to 0
Reading: higher = stronger binding
Shared flanks, not repeated: GTGAGCGGTGCCCATTGATGGGGAAC … TTTCACTGGGATCGTGGGGAC
Target sequence (chain): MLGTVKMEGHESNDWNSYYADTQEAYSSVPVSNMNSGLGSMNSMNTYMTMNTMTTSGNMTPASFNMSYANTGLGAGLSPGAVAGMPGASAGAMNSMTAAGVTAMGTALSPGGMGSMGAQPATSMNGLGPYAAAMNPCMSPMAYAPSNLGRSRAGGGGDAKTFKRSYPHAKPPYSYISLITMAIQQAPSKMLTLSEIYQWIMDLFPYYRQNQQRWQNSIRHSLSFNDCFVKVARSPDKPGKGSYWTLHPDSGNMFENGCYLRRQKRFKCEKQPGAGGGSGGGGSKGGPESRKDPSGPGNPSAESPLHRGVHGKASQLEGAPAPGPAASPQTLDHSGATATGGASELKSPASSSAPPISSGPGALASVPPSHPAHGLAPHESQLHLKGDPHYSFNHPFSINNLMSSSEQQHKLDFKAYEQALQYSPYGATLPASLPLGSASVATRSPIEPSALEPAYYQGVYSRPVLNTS
Oligonucleotide | normalised bound fraction [ratio]
ACTGGGATGAGAGGCCAGGTAGAAACTTCAGGAGCATTCCACTTTGAAGTGTGAGGCTCTACCAGACACAAAATAAATATAACTGGGGGCCAGAATAATCTTCCAGGGCCAGCAAGTGAACCTGGCTTACGTGGCATGCATTAATATTTGGAGAAATTTCCCCAGCGAGGTTGCAGGAAGCTGAGTCACCTAC | 0.234
CTCATTCCTTGCTTCCGCCAATAATCTGACTAGTAAAGAAGTCACTGCATGCCACAAATTGTCAGTGCTGACTTCCTCAACAAGGAAGTATAAGTAAATAAATATTAAGAGTGACTCAGTATATATGCAAATTCCATCTTGAGAATACCAACTCCTGATGCCAACTGATTGTCAGTCATGGCTACAACAGGAG | 0.401
ATCTTCCCCCTCTTCCTTGCCCCACCAGCTCACCTTCCCGGGTCAAAGTAAACAAGTGTTTACTTTGAAGCCGGCATTCGTTAACCCTCTTCACGCGCATACTGCCAAAGTAAACAGATGAATCATGGTCCTTTGGCGACGCCAGGCTCCGGGAGAGCAAAGCACCGTGTCAGGGCCATGATCCGGGGTGGCC | 0.541
ATTAGTTCATGCCAGGCAGGGTTTGACCAAAACCTTGGACTCACTCCTGTCTGCTTTCCTTCAGTGACTAAGAGGATTCCTGAGATGGATGTGCAAACATGAAGTGTTTACTTTCCTCCATGGGAATGTACTTCTGGCTTCCACTCCTCAGCTGCTGCTGCTAAGCCAGTGAGATAGATGGTGGTTTGGAAAC | 0.406
TAAAGAATTTCTCAGTATAATTACCTCCAGCCAGGTTGCTTTTTTTAGCTCAAAAGAAAGATAAAAGGCGGAGTCCTGTAAATAAAGGGAATGTAAACATGGAGACTGAACCAAAGGCAAGTTACGGGGAGATAAGAATACCTGAAGAGAATTCGATTCAGCTTGATGGTTTTACAGAAGCATATGAAAGTGG | 0.295
GTGAGCCACTGCGCCCAGCCCATAAATCCTTTTATAAGCTTAAAAAAAATTTCTTTTTTCTCTCCTGTATATTACTATGTTTTATATTTTAAGTAAACAAGAATATACCTATGAATACTGTACTCAATTTAAAGTAATCTACCATCAATTGCATTACTTCCAAATTAAATTTAAATGTCAGTTTAATTAATGA | 0.406
CCCTCATCCTGGGTGTCGGGGTGGGAGGTGTTCTCATCATGAATGGGAGGCGTACCCAGATCCAGCTCTGCCTTTTTTTAACCAAACCAGAGTGTAAACAAATGGTGACTCACCAGCTGTTAATCGACATAGCAAGATATGATACATGCCAGGAGAGAAAAAGAAAGTGCTGATGGAAAAATAATCTCATTAG | 0.33
GAGCTGCTTGCAATTGAGTTGTATGTATGCTTCCACTTAATACGTCCTGCCGAGCCTGTAAGCCACTTCCGGCCAACAGGAATCTGCCCTCTGTGTTTACCTACTCTCTTTTTATGTCTTATTCCCAGAATGACTGGGGACCAAAGGAATCCTTTGCAGGAGTTTTCTCCAGACAGACAGTTCCACATGCTAG | 0.232

Sample 6
Target: CCNF, cyclin fold, Cln2 fusion (human)
Method: yeast growth competition, sequencing
Sample: yeast
Setting: strong parent motif
Reference: not given
Reading: higher = stronger binding
Starting sequence: CDKN1A docking peptide (human); SKACRRLFGPVDS
Change | normalised enrichment score
C4I | 5.57
P10A | 6.97
L7H | 0.336
F8C | 0.67
K2V | 7.07
D12A | 6.86
G9T | 7
K2H | 7.74
V11H | 7.54
A3Q | 3.82
L7Q | 0.268
P10K | 6.5
V11P | 7.31
G9V | 7.14
K2M | 7.58
D12S | 7.08

Sample 7
Target: Sal-like protein 4, full length isoform B (SALL4, Homo sapiens, UniProt Q9UJQ4-2, residues 1-616)
Method: universal PBM
Form: double-stranded DNA, one strand shown
Sample: in vitro
Concentration: not given
Setting: 8-mer, flanks averaged, mean of replicates
Reading: higher = stronger binding
Target sequence (chain): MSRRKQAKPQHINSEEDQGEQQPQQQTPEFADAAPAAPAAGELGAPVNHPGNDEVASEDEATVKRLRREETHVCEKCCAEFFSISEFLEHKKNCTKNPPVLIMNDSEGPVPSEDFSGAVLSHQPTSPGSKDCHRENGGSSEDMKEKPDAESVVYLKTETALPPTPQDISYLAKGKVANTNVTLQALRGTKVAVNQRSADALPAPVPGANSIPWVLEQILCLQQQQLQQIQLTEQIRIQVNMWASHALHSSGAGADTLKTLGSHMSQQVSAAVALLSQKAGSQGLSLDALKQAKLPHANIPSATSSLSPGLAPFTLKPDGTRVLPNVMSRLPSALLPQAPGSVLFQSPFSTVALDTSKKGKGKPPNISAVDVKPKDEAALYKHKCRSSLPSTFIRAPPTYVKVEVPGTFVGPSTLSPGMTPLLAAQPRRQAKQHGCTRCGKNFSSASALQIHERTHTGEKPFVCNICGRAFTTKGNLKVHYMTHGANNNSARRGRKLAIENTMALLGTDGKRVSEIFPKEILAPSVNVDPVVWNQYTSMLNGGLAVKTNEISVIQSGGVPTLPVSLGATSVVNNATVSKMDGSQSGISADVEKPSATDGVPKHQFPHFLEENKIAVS
Oligonucleotide | E-score
CATCACGG | -0.0777
AGCATCAC | -0.249
ACTGAGCG | -0.258
AAGAGTGT | 0.0945
CAGTAGTC | -0.147
CCAAAAGG | -0.0703
ACCGTACA | 0.1
GGTGTTAC | -0.0268
GGCGTAGA | -0.0689
ATCAGACG | -0.0287
CCGAGAGC | -0.256
AGACTGTG | -0.0728
GTCAGTGA | -0.0396
GGGTTTAA | 0.093
GATTCGCC | -0.0611
ACTAGTGC | -0.0757
TGGGACCA | -0.157
CAGGTGAA | -0.00797
CCGGAACC | -0.433
CAAGCCAA | -0.0456
GAACGTTA | -0.00564
